Assay results of several laboratories.
Parts stem from different laboratories: compare values within a part only. “And” joins repeats or separate records; there may be more than shown.
Chain of UniProt P36896 (whole entry, looked up): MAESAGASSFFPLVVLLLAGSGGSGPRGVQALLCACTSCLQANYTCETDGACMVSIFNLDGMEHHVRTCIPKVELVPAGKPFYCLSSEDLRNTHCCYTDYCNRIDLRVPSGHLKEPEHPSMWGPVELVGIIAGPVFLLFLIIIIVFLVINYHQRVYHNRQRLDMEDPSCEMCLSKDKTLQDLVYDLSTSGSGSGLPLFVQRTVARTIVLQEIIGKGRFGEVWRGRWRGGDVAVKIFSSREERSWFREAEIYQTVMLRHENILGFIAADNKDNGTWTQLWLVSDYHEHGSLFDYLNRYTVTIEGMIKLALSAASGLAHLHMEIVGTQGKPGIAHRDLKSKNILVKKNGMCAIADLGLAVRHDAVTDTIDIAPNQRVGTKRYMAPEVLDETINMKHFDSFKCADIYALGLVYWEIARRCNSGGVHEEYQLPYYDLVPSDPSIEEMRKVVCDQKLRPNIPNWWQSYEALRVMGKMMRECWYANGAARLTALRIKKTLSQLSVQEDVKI
Chain of UniProt P49137 (whole entry, looked up): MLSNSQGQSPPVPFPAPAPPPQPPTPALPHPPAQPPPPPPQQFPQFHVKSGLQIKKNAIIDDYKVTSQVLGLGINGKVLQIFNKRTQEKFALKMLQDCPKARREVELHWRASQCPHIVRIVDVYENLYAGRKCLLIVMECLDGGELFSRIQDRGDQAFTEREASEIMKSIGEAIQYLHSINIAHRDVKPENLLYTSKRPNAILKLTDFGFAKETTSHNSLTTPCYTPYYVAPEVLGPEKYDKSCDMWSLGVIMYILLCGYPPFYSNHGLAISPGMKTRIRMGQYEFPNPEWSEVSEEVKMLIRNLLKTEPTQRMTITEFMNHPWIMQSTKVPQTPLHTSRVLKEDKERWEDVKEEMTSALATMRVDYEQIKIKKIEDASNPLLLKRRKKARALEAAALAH
Chain of UniProt Q15349 (whole entry, looked up): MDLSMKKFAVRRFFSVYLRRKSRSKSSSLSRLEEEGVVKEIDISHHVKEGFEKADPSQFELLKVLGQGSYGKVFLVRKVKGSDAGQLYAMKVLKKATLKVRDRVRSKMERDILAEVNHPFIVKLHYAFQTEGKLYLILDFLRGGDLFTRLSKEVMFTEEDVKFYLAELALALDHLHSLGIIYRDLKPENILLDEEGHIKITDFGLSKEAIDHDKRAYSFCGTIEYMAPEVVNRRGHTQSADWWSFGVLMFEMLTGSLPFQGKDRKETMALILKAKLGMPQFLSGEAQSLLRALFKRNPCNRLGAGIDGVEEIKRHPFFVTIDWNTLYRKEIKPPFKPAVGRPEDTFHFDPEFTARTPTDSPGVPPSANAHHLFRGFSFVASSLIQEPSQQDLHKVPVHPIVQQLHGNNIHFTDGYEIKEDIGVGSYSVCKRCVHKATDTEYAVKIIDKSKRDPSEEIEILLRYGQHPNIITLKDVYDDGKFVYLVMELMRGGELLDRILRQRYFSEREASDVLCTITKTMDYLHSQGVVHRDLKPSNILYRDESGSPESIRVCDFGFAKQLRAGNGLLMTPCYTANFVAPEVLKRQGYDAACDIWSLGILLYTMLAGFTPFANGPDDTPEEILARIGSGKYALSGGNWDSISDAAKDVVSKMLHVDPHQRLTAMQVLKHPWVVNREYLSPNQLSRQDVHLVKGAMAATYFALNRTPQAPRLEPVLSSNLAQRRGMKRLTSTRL
Chain of UniProt O75582 (whole entry, looked up): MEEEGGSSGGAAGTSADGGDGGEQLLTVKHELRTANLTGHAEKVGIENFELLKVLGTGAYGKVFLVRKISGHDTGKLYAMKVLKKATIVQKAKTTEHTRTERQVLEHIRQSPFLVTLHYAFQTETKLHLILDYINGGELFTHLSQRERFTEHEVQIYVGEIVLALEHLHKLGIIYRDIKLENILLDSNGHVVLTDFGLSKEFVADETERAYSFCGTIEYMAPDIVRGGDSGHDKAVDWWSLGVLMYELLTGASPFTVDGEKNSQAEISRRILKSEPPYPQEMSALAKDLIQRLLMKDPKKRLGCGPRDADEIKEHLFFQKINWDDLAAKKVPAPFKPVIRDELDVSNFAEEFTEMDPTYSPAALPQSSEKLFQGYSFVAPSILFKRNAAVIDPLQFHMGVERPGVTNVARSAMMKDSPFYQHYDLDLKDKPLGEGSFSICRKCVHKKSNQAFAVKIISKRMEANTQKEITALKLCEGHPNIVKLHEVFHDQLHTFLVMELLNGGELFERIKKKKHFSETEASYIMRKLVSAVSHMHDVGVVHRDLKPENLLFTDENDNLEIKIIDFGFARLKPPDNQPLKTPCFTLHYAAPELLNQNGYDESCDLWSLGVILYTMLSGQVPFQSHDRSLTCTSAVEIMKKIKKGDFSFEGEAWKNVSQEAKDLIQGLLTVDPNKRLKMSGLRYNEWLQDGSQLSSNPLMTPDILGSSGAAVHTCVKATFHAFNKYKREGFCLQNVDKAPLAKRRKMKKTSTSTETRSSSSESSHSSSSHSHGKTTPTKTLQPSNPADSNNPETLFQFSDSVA
Chain of UniProt P30291 (whole entry, looked up): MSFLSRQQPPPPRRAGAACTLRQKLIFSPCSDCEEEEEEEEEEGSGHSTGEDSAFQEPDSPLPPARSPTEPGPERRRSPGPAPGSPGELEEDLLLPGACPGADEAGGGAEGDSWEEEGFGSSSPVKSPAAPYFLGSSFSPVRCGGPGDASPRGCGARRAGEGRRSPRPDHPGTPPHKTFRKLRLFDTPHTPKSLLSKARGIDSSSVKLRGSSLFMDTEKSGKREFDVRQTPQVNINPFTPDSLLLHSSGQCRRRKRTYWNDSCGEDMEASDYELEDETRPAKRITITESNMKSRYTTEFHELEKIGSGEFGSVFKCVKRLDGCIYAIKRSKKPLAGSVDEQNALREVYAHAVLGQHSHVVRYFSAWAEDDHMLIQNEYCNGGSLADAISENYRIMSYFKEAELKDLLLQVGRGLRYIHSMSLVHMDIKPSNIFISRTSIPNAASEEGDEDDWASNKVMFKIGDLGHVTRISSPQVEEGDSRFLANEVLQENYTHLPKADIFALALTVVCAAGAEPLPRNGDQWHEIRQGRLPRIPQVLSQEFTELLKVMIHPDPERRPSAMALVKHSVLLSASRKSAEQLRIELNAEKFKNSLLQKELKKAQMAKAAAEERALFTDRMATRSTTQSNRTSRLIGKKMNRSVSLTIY
Chain of UniProt O94768 (whole entry, looked up): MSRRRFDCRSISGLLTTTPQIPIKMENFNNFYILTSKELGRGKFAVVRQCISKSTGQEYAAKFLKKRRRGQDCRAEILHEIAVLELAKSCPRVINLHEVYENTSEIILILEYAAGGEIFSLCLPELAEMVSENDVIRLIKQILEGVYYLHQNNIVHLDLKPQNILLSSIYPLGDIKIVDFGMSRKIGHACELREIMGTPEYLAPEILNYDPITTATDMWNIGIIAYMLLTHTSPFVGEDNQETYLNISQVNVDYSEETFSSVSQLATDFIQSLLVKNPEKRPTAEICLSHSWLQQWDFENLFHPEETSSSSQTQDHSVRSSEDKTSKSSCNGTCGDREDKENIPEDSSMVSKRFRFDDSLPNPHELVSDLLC
Chain of UniProt Q13705 (whole entry, looked up): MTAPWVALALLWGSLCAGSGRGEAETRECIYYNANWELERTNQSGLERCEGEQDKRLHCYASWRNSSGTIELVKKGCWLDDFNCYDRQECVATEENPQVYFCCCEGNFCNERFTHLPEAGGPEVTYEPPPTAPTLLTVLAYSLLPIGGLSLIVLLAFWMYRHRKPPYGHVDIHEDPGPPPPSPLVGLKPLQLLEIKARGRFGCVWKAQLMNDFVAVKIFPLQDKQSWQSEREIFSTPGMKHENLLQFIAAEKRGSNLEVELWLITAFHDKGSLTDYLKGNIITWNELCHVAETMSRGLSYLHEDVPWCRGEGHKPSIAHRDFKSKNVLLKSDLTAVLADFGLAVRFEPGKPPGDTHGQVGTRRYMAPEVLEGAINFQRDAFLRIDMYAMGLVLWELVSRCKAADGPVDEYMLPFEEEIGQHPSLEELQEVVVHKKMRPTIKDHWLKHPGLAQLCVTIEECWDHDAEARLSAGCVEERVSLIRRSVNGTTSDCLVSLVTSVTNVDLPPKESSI
Chain of UniProt P06239 (whole entry, looked up): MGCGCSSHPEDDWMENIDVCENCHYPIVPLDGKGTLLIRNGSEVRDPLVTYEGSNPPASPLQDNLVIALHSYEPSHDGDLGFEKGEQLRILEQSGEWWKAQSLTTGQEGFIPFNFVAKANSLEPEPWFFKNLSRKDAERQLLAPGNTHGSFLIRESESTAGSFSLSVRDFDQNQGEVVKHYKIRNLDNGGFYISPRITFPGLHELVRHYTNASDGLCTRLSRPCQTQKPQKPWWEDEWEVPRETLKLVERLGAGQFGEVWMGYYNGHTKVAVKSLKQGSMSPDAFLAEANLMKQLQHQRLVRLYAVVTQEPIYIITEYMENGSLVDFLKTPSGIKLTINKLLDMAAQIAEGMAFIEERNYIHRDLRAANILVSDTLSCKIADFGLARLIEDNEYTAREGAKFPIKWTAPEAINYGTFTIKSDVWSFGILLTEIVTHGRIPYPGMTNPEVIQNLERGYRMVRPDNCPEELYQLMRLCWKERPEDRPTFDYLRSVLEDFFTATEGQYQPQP

Sample 1 — effect on: enzyme activity; mode: inhibitor; tested at: 0.5 µM; reference: control
SMILES: O=C(c1cc2cc(O)ccc2[nH]1)c1cc2cc(O)ccc2[nH]1
ABL2 (Homo sapiens, UniProt P42684) — remaining activity: 27.2%.
For GRK7 (Homo sapiens, UniProt Q8WTQ7): remaining activity read 99.8%.
The remaining activity was 90.4% (MST1R (Homo sapiens, UniProt Q04912)).
The remaining activity was 98.6% (ARAF (Homo sapiens, UniProt P10398)).
For NEK1 (Homo sapiens, UniProt Q96PY6): remaining activity read 93.4%.
The remaining activity was 86.1% (FRK (Homo sapiens, UniProt P42685)).
It gave 94.5% for remaining activity (JAK3 (Homo sapiens, UniProt P52333)).
For WEE1 (Homo sapiens, UniProt P30291): remaining activity read 90.6%.
The remaining activity was 81.8% (MERTK (Homo sapiens, UniProt Q12866)).
The remaining activity was 92.1% (FGFR3 (Homo sapiens, UniProt P22607)).
The remaining activity was 52% (LCK (Homo sapiens, UniProt P06239)).
The remaining activity was 98.9% (ACVR1B (Homo sapiens, UniProt P36896)).
MAPKAPK2 (Homo sapiens, UniProt P49137) — remaining activity: 103%.
The remaining activity was 22.2% (RPS6KA2 (Homo sapiens, UniProt Q15349)).

Sample 2 — mode: inhibitor; notes: unit not given; added: [3H]adenosine
SMILES: COc1cc(C(=O)OCCCN2CCCN(CCCOC(=O)c3cc(OC)c(OC)c(OC)c3)CC2)cc(OC)c1OC
SLC29A1: Equilibrative nucleoside transporter 1 (SLC29A1, Homo sapiens, UniProt Q99808)
Chain of UniProt Q99808 (whole entry, unmodified, looked up): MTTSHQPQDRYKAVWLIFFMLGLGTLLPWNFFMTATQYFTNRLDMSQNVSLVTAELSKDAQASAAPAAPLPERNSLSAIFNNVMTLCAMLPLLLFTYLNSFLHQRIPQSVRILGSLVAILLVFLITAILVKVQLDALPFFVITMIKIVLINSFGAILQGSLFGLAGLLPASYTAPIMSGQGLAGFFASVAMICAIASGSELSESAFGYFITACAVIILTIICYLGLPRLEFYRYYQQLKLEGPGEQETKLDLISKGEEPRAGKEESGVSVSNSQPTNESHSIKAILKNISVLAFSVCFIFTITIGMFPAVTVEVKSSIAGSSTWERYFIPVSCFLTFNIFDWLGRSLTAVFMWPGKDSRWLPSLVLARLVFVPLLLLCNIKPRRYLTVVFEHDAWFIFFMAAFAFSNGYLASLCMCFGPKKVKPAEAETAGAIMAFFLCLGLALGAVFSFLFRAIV
It gave 0.00887 and 0.0113 and 0.00691 for adenosine uptake (SLC29A1; 10 µM; reference: normalised control).
SLC29A1; 1 pM; reference: normalised control — adenosine uptake: 1.05 and 0.81 and 0.817 and 1.21.
SLC29A1 (Homo sapiens, UniProt Q99808, G154S); Xenopus oocytes expressing SLC29A1 G154S; reference: untreated — adenosine uptake: 0.0567 and 0.1 and 0.08.

Sample 3 — organism: Sarcocystis neurona; effect on: parasite growth; tested at: concentration not given
The inhibition of `COc1ccccc1N1CCN(CCCNc2cc(=O)n(C)c(=O)n2C)CC1.Cl` is reported as -15.8%.
For `Nc1nc(Cl)nc2c1ncn2[C@@H]1O[C@H](CO)[C@@H](O)[C@H]1O`, the inhibition was -13.9%.
For `CN(Cc1cnc2nc(N)nc(N)c2n1)c1ccc(C(=O)N[C@@H](CCC(=O)O)C(=O)O)cc1.O`, the inhibition was -11.4%.
`O=C(O)c1cc2ccccc2c(Cc2c(O)c(C(=O)O)cc3ccccc23)c1O.OCCOCCN1CCN(C(c2ccccc2)c2ccc(Cl)cc2)CC1` has an inhibition of -13.6%.
`C[C@]12CCC(=O)C=C1CC[C@@H]1[C@@H]2[C@@H](O)C[C@@]2(C)[C@H]1CC[C@]2(O)C(=O)COC(=O)CCC(=O)O` has an inhibition of -2.9%.
`CN(C)CC[C@@H](c1ccc(Br)cc1)c1ccccn1.O=C(O)/C=C\C(=O)O` (single isomer, unassigned) has an inhibition of -5.9%.
`CN1C(C(=O)Nc2ccccn2)=C(O)c2ccccc2S1(=O)=O.O` has an inhibition of -11.5%.
`C#C[C@]1(O)CC[C@H]2[C@@H]3CCC4=CC(=O)CC[C@@H]4[C@H]3CC[C@@]21C` gave an inhibition of -11.8%.

Sample 4 — tested at: 1 µM
SMILES: COc1ccc2c(O[C@@H]3C[C@H]4C(=O)N[C@]5(C(=O)O)CC5/C=C\CCCCC[C@H](NC(=O)OC5CCCC5)C(=O)N4C3)cc(-c3csc(NC(=O)C(C)C)n3)nc2c1C (stereo partly shown)
The remaining binding was 100% (Ribosomal protein S6 kinase alpha-5, C-terminal kinase domain (RPS6KA5, Homo sapiens, UniProt O75582); cell-free assay, competition with immobilised ligand).
For MAPK4 (Homo sapiens, UniProt P31152); cell-free assay, competition with immobilised ligand: remaining binding read 93%.
For PIK3CA (Homo sapiens, UniProt P42336, E545A); cell-free assay, competition with immobilised ligand: remaining binding read 100%.
EGFR (Homo sapiens, UniProt P00533, G719C); cell-free assay, competition with immobilised ligand — remaining binding: 76%.
It gave 80% for remaining binding (ABL1 (Homo sapiens, UniProt P00519, E255K); KINOMEscan; E255K mutant, phosphorylated; reference: control).
The remaining binding was 100% (DAPK2 (Homo sapiens, UniProt Q9UIK4); cell-free assay, competition with immobilised ligand).
It gave 100% for remaining binding (DAPK1 (Homo sapiens, UniProt P53355); cell-free assay, competition with immobilised ligand).
ANKK1 (Homo sapiens, UniProt Q8NFD2); cell-free assay, competition with immobilised ligand — remaining binding: 79%.
For CHEK1 (Homo sapiens, UniProt O14757); cell-free assay, competition with immobilised ligand: remaining binding read 100%.
It gave 89% for remaining binding (FLT3 (Homo sapiens, UniProt P36888, N841I); cell-free assay, competition with immobilised ligand).
For STK17B (Homo sapiens, UniProt O94768); cell-free assay, competition with immobilised ligand: remaining binding read 88%.
It gave 75% for remaining binding (Tyrosine-protein kinase JAK1, JH2 (JAK1, Homo sapiens, UniProt P23458); cell-free assay, competition with immobilised ligand).
For RET (Homo sapiens, UniProt P07949, V804M); cell-free assay, competition with immobilised ligand: remaining binding read 96%.
The remaining binding was 100% (ACVR2B (Homo sapiens, UniProt Q13705); cell-free assay, competition with immobilised ligand).
For PRKACA (Homo sapiens, UniProt P17612); cell-free assay, competition with immobilised ligand: remaining binding read 97%.

For quick reference, copied from above (sample 3):
`C[C@]12CCC(=O)C=C1CC[C@@H]1[C@@H]2[C@@H](O)C[C@@]2(C)[C@H]1CC[C@]2(O)C(=O)COC(=O)CCC(=O)O` has an inhibition of -2.9%.
For `Nc1nc(Cl)nc2c1ncn2[C@@H]1O[C@H](CO)[C@@H](O)[C@H]1O`, the inhibition was -13.9%.
`CN(C)CC[C@@H](c1ccc(Br)cc1)c1ccccn1.O=C(O)/C=C\C(=O)O` (single isomer, unassigned) has an inhibition of -5.9%.
